# Assay results gathered from unrelated publications.
# Each numbered part is a random draw from the data of one study; scales do not carry over between parts. Substitutions count along the parent as printed.

# Set 1
# Target: CREB3L3, bZIP domain (human)
# Technique: DHFR protein complementation
# Medium: yeast
# Setting: single substitutions, most at no-binding floor
# Reference: wild-type JUN-FOS pair
# Direction: higher = stronger binding
# Parent: JUN, bZIP domain (human); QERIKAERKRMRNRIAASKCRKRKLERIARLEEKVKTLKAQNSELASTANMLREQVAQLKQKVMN; partner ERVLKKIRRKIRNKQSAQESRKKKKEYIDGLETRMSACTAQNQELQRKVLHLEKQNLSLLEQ
Change,binding fitness [natural log]
A57L,-1.5
A29S,-1.49
A49V,-1.2
S47R,-1.41
V56Y,-1.32
E44Y,-1.57
M51L,-1.47
S47A,-1.55
E33R,-1.35
V56E,-1.47
E32T,-1.47
K36M,-1.19
A29E,-1.45
A46W,-1.45
K36V,-1.42
K34E,-1.43
E33F,-1.58
L59V,-1.54
R53Q,-1.44
E32I,-1.55
R30W,-1.32
L52A,-1.52
R53K,-1.53
L38Y,-1.29
E44P,-1.47

# Set 2
# Partner: ARF10 575-693 (Arabidopsis thaliana, UniProt Q9SKN5)
# Technique: two-hybrid
# Reference: out of 4 tests
# Direction: higher = firmer interaction
# B1: IAA34 (Arabidopsis thaliana, UniProt Q9C5X0); chain MYCSDPPHPLHLVASDKQQKDHKLILSWKKPTMDSDPLGVFPNSPKYHPYYSQTTEFGGVIDLGLSLRTIQHEIYHSSGQRYCSNEGYRRKWGYVKVTMDGLVVGRKVCVLDHGSYSTLAHQLEDMFGMQSVSGLRLFQMESEFCLVYRDEEGLWRNAGDVPWNEFIESVERLRITRRNDAVLPF
# B2: ARF7 1030-1164 (Arabidopsis thaliana, UniProt P93022); chain PAQTQRMRTYTKVQKRGSVGRSIDVNRYRGYDELRHDLARMFGIEGQLEDPQTSDWKLVYVDHENDILLVGDDPWEEFVNCVQSIKILSSAEVQQMSLDGNFAGVPVTNQACSGGDSGNAWRGHYDDNSATSFNR
# B3: IAA27 (Arabidopsis thaliana, UniProt Q9ZSY8); chain MSVSVAAEHDYIGLSEFPTMEATTMSDKTKTRDNNNGLNFKATELRLGLPGSESPERVDSRFLALNKSSCPVSGAKRVFSDAINDSNKWVFSPGSTTATGDVGSGSGPRTSVVKDGKSTTFTKPAVPVKEKKSSATAPASKAQVVGWPPIRSFRKNSMASSQSQKPGNNSETEEAEAKSGPEQPCLYVKVSMEGAPYLRKIDLKTYKSYLELSSALEKMFSCFTIGQFGSHGGCGRDGLNESRLTDLLRGSEYVVTYEDKDSDWMLVGDVPWEMFICSCKKLRIMKSSEAIGLAPRVMEKCRSRN
# B4: IAA32 (Arabidopsis thaliana, UniProt Q8RYC6); chain MDPNTPADFFKGSSKFHTYYSQTKKGGGVIDLGLSLRTIQHETYLPPARMIGLDGYGELIDWSQPSYNSITQLKSEDTGHQRLAQGYYNNEGESRGKYAYVKVNLDGLVVGRKVCLVDQGAYATLALQLNDMFGMQTVSGLRLFQTESEFSLVYRDREGIWRNVGDVPWKEFVESVDRMRIARRNDALLPF
# B5: ARF6 790-935 (Arabidopsis thaliana, UniProt Q9ZTX8); chain SENPQSNTFVKVYKSGSFGRSLDISKFSSYHELRSELARMFGLEGQLEDPVRSGWQLVFVDRENDVLLLGDDPWPEFVSSVWCIKILSPQEVQQMGKRGLELLNSAPSSNNVDKLPSNGNCDDFGNRSDPRNLGNGIASVGGSFNY
# B6: ARF2 727-859 (Arabidopsis thaliana, UniProt Q94JM3); chain TKTNSSRSCTKVHKQGIALGRSVDLSKFQNYEELVAELDRLFEFNGELMAPKKDWLIVYTDEENDMMLVGDDPWQEFCCMVRKIFIYTKEEVRKMNPGTLSCRSEEEAVVGEGSDAKDAKSASNPSLSSAGNS
# B7: ARF4 660-788 (Arabidopsis thaliana, UniProt Q9ZTX9); chain QSSSKRICTKVHKQGSQVGRAIDLSRLNGYDDLLMELERLFNMEGLLRDPEKGWRILYTDSENDMMVVGDDPWHDFCNVVWKIHLYTKEEVENANDDNKSCLEQAALMMEASKSSSVSQPDSSPTITRV
# Residues (chain): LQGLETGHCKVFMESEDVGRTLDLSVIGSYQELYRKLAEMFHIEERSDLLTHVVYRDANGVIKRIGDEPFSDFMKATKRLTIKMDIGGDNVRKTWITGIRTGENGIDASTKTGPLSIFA
Sequence,positive tests
B1 (IAA34),1
B2 (ARF7 1030-1164),1
B3 (IAA27),1
B4 (IAA32),2
B5 (ARF6 790-935),0
B6 (ARF2 727-859),0
B7 (ARF4 660-788),0

# Set 3
# Target: Histone acetyltransferase KAT6A, winged helix 2, GST fusion (KAT6A, Homo sapiens, UniProt Q92794, residues 85-181)
# Technique: protein binding microarray
# Molecule type: double-stranded DNA, one strand shown
# Medium: in vitro
# Tested at: not given
# Setting: 8-mer, flanks averaged, mean of 2 arrays, mostly near background
# Reference: not given
# Direction: higher = stronger binding
# Residues (chain): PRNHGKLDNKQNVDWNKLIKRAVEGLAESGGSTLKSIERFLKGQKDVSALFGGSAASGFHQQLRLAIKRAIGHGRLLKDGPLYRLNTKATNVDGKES
Sequence,E-score
ACTGGGGG,-0.0491
CTTACGAC,-0.276
GCCCGGTA,0.0793
AGCTTATC,-0.0911
ATATGCAG,-0.128
CTATCAAG,-0.0453
AAAGAGTG,-0.0564
GACGGCTC,-0.134
AGCGTAGA,-0.0246
TAGTATCA,0.0793
GGAGACAA,0.122
ATCCGATC,-0.0102
GTATGATA,0.0891
ACCGAAGC,-0.0379
GCGTTGAA,0.0285
GCATAGAC,-0.00652
GCGCTTAC,-0.0468
ACTATACC,-0.138
ACGTGATG,-0.079
CAGTTCAC,0.0192

# Set 4
# Target: CCND3, cyclin fold, Cln2 fusion (human)
# Technique: yeast growth competition, sequencing
# Medium: yeast
# Setting: weak parent motif
# Reference: not given
# Direction: higher = stronger binding
# Parent: E2F1 docking peptide (human); PPVKRRLDLETDH
Change,normalised enrichment score
PPVRRRLDLETDH [K4R],0.0593
PPVKQRLDLETDH [R5Q],0.126
PPVKRRKDLETDH [L7K],0.119
APVKRRLDLETDH [P1A],0.138
HPVKRRLDLETDH [P1H],0.109
PPVKRKLDLETDH [R6K],0.0186
PPVKRRLDLEIDH [T11I],0.0475
CPVKRRLDLETDH [P1C],0.155
PPVKRRTDLETDH [L7T],0.124
PPVKRFLDLETDH [R6F],0.162
PPVKRRLDLETSH [D12S],0.0788
PPVKRPLDLETDH [R6P],0.0953
PPVKRRLHLETDH [D8H],0.0228
PPVKRRLDLETHH [D12H],0.08
PPVNRRLDLETDH [K4N],0.119
PPVKRRLMLETDH [D8M],0.125
PPVKRRLDLETWH [D12W],0.124
PPVKRRLDLETQH [D12Q],0.203
PPVKRALDLETDH [R6A],0.0389
PTVKRRLDLETDH [P2T],0.181
PPVKRRLDLETTH [D12T],0.0767

# Set 5
# Target: Ras GTPase-activating protein-binding protein 1, RRM domain (G3BP1, Homo sapiens, UniProt Q13283)
# Sequence of UniProt Q13283 (whole entry, looked up): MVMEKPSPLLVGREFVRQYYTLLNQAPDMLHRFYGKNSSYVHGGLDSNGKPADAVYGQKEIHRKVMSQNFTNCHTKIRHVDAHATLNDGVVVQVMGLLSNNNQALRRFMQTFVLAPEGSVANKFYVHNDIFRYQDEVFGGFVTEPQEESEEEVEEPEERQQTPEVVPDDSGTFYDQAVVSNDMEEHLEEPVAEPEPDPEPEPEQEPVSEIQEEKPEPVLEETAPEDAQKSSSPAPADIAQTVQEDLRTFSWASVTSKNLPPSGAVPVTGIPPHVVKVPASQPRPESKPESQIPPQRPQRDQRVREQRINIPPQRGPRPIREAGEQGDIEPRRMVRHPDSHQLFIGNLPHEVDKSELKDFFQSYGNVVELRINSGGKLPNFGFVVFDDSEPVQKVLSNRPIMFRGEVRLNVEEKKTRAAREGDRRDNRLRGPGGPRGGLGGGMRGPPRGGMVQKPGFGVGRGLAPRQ
# Technique: RNA Bind-n-Seq
# Molecule type: RNA
# Medium: in vitro
# Tested at: 1 µM
# Setting: whole 134-nt RNA, ends assumed
# Added: 150 mM KCl
# Reference: input library
# Direction: higher = stronger binding
Sequence,log2 enrichment
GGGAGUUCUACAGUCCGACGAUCUCAAGUCCUGUGCUACACAUCGUAUGUACCGAAUCGGAAAGGGAAAGGGAAAGGAAAGUAUUAUGUUACGCCGUUCGGAUCUGCACUUCCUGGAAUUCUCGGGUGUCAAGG,-0.182
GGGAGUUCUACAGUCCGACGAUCGCAGGAAGUAAAAACAAAUGGAAAUGCUUCGGAUAGUGGCAGGGGUGGGGGUUACUAAGGAAAGGGUGGGAUGGGAGUGGGUAAAGAGUUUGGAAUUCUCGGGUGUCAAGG,0.662
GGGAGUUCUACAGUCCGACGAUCACCAUGCAGGUGGGCAUCUUUGGGAAGUGGGGCAAGGGGGGGAUAGGGAGGGGGGUAACACUUUGGGAACAGGUGGUCCAAGGUCGUUUCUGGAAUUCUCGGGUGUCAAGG,0.917
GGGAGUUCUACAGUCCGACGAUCUGGACUUGCGGGUUCCCAUCUGGGACCAGGACAUACAGUUUCUCCCAGGAUCACAGAAGCUUGUCACCUGCACAGGGUACCACCAGGUAAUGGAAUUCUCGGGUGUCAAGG,-0.291
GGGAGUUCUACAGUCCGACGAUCGUCCUGUGCUACACAUCGUAUGUACCGAAUCGGGUUUGGGUUUUUUUGGGUUUUUGGGAAAGUAUUAUGUUACGCCGUUCGGAUCUGCACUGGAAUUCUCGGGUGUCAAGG,0.378
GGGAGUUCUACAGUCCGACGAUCCUCAAGUCCUGUGCUACACAUCGUAUGUACCGAAUCGGUUUGGUUUGGUUUGGAAAGUAUUAUGUUACGCCGUUCGGAUCUGCACUUCCAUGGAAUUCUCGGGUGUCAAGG,-0.277
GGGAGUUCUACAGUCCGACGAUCCCUCAAGUCCUGUGCUACACAUCGUAUGUACCGAAUCGGGCCGGCCGGCCGGGAAAGUAUUAUGUUACGCCGUUCGGAUCUGCACUUCCAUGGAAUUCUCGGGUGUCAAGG,-0.373
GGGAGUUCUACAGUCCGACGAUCGUCCUGUGCUACACAUCGUAUGUACCGAAUCGGGGUUUGGGGUGGGGAAAAAAAGGGGAAAGUAUUAUGUUACGCCGUUCGGAUCUGCACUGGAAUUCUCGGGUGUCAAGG,0.86
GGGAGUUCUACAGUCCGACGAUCAAGUCCUGUGCUACACAUCGUAUGUACCGAAUCGGGUUUUGGUUUUGGGUUUUGGGGAAAGUAUUAUGUUACGCCGUUCGGAUCUGCACUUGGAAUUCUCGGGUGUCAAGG,-0.105
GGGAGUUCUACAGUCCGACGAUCGUCCUGUGCUACACAUCGUAUGUACCGAAUCGGAAAAAGGGGAAAAAGGGGAAAAAGGGAAAGUAUUAUGUUACGCCGUUCGGAUCUGCAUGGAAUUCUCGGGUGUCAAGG,0.281
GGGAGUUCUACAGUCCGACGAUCGUCCUGUGCUACACAUCGUAUGUACCGAAUCGUGUGUGUGUGUGUGUGUGUGUGUGUGUAAAGUAUUAUGUUACGCCGUUCGGAUCUGCAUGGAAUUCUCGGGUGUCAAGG,0.0776
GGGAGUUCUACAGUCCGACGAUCUCAAGUCCUGUGCUACACAUCGUAUGUACCGAAUCGGGGUUGGUUGGGUUGGGGAAAGUAUUAUGUUACGCCGUUCGGAUCUGCACUUCCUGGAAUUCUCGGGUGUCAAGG,0.0839
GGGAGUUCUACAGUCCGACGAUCCCUCAAGUCCUGUGCUACACAUCGUAUGUACCGAAUCGGAAAGGUUUGGAGGAAAGUAUUAUGUUACGCCGUUCGGAUCUGCACUUCCAGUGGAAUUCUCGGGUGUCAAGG,-0.0873
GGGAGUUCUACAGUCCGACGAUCACCAUGCAGGUGGGCAUCUUUGGGAAGUGGGGCAAGGGGGGGAUAGGGAGGGGGGUAACACUUUGGGAACGGGUGGUCCCAGGUCGUUUCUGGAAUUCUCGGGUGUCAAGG,0.775

# Set 6
# Target: ABI1, truncated, D143A, DHFR fusion (Arabidopsis thaliana)
# Technique: DHFR PCA, deep sequencing
# Medium: yeast
# Setting: methotrexate growth selection, single substitutions
# Added: (+)-ABA 2500 µM
# Reference: wild-type fitted maximum
# Direction: higher = stronger binding
# Parent: PYL1, truncated, DHFR fusion (Arabidopsis thaliana); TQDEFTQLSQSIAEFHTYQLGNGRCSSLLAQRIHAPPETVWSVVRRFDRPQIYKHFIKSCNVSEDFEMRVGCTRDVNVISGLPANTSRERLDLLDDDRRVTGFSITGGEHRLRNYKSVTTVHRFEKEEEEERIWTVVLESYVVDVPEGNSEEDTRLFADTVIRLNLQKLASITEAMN; partner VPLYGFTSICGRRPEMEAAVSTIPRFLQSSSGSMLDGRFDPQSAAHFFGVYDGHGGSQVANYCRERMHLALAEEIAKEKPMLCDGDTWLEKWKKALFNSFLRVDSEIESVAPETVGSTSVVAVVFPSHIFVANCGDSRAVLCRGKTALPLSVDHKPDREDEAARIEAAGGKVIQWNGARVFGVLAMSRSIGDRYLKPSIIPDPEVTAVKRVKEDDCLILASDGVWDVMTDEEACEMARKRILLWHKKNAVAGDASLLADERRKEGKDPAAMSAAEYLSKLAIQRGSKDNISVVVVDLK
Change,relative binding score [%]
S42H,94.7
S80E,63.8
L82I,98.8
K126D,100
R132L,104
V137A,82.8
E89K,-14
N165H,83.4
H122T,87.2
G102I,76.5
V118K,106
T6S,105
V70L,91.6
E131G,109
L156M,99.9
I172L,93.5
F5C,107
P50W,-10.7
I33K,-30.7
P83T,44.1

# For quick reference, copied from above (set 1):
Change,binding fitness [natural log]
A57L,-1.5
A29S,-1.49
A49V,-1.2
S47R,-1.41
V56Y,-1.32
E44Y,-1.57
M51L,-1.47
S47A,-1.55
E33R,-1.35
V56E,-1.47
E32T,-1.47
K36M,-1.19
A29E,-1.45
A46W,-1.45
K36V,-1.42
